Published values collected from several papers.
Several values in a cell are separate wells, animals, samples, runs or records.
CDK8: Cyclin-dependent kinase 8 (CDK8, Homo sapiens, UniProt P49336)
CDK8 with cyclin C: Cyclin-dependent kinase 8, with cyclin C (CDK8, Homo sapiens, UniProt P49336)

| Compound | target | test | conditions | scale | endpoint | value |
| --- | --- | --- | --- | --- | --- | --- |
| CCN1CCN(Cc2ccc(C(=O)Nc3ccc(C)c(NCc4cnc5[nH]ccc5c4OC)c3)cc2C(F)(F)F)CC1 | CDK8 | binding, competition with immobilised ligand | 1 µM | – | remaining binding | 32% |
| COc1c(Cl)cccc1Nc1c(-c2ccncc2C#C[C@@]2(C)CCCN2C(=O)/C=C/CN(C)C)[nH]c2c1C(=O)NCC2 | CDK8 | binding, competition with immobilised ligand | 3 µM | – | remaining binding | 100% |
| COc1cc(Nc2nc(C)cc(-c3cnn4nc(OC)ccc34)n2)cc(C(F)(F)F)c1 | CDK8 | inhibitor | 1 µM | relative to: control | remaining activity | 100% |
| C[C@]1(O)CCCN(c2nc(Nc3ccc(S(=O)(=O)N[C@H]4CC[C@H](CN5CCN(c6ccc(C7CCC(=O)NC7=O)cc6F)CC5)CC4)cc3)ncc2C(F)(F)F)C1 (stereo partly shown) | CDK8 | binding, competition with immobilised ligand | 1 µM | – | remaining binding | 76% |
| CN1C[C@@H](c2c[nH]c3cc(Br)ccc23)NC[C@@H]1c1c[nH]c2cc(Br)ccc12 | CDK8 with cyclin C | enzyme activity, inhibitor | 10 µM | – | remaining activity | 110% |
| C=CC(=O)N1CCCC(n2c(=O)c3ncccc3n(Cc3ccc(Oc4ccccc4)cc3)c2=O)C1 (stereo not shown) | CDK8 | cell-free assay, competition with immobilised ligand | 1 µM | – | remaining binding | 95% |
| CC(C)=CC1OC(C)(C)C2C=C3C(=O)C(Cl)=CC(O)C3C3C(O)C4OC4C(=O)C132 (stereo not shown) | CDK8 | cell-free assay, competition with immobilised ligand | 10 µM | – | remaining binding | 100% |
| C=CC(=O)N1Cc2nc(-c3cc(-c4cc(Cl)cnc4Cl)c(F)cc3F)n(-c3ccncn3)c2C1 | CDK8 with cyclin C | cell-free assay, inhibitor | 1 µM | – | inhibition | 0.2% |
| Nc1ncc2c(n1)-c1c([nH]c3ccc(C4=CCOCC4)cc13)CCC2 | CDK8 | binding, competition with immobilised ligand | 1 µM | – | remaining binding | 96% |
| CCN1CCN(Cc2ccc(NC(=O)c3ccc(C)c(NC(=O)c4cncc(-c5cccs5)c4)c3)cc2C(F)(F)F)CC1 | CDK8 | binding, competition with immobilised ligand | 1 µM | – | remaining binding | 5.6% |
| COc1cc(Nc2nccc(-c3cnn4nc(OC)ccc34)n2)cc(C(F)(F)F)c1 | CDK8 | binding, competition with immobilised ligand | 1 µM | – | remaining binding | 100% |
| CN1CCN(Cc2ccc(-c3ccc(CO[C@H]4CCC[C@@H]4NC(=O)c4cc(-c5cnn(C)c5)cnc4N)cc3)cc2)CC1 | CDK8 with cyclin C | enzyme activity, inhibitor | 0.1 µM | – | inhibition | 5% |
| C[C@H]1CN(C(=O)c2cn(-c3ccnc(N)n3)c3cc(C#CC4(O)CCCCC4)ccc23)CCN1 | CDK8 with cyclin C | cell-free assay, TR-FRET | 1 µM | – | inhibition | 0% |
| Cc1cnc2nc1Nc1cccc(c1)COC/C=C/COCc1cc(ccc1OCCN1CCOCC1)N2 | CDK8 | – | concentration not given | – | percent of control | 83% |
| COCC12C(=O)NC3C4(C(OC)CC1O)C1CC5(O)C(OC)C(O)C(OC(C)=O)(C1C5OC(=O)c1ccccc1)C3(O)C(OC)C24 (stereo not shown) | CDK8 with cyclin C | kinase activity, inhibitor, ProQinase kinase profiling | 25 µM | relative to: control | remaining activity | 91% and 114% |
| CNC1C[S+]2CC[S+]3CC[S+](C1)[Ru-4]321([N]=C=S)[n]2c3ccc(OC)cc3c3c4c(c5cc(F)c[n+]1c5c32)C(=O)NC4=O (stereo not shown) | CDK8 | KinomeScan | 0.1 µM | relative to: untreated | remaining binding | 73% |
| CNC(=O)C1CCN(c2cc(C)c(F)cc2NC(=O)c2ccc(-c3cc(O)ccc3C)c(C)c2)CC1 | CDK8 | binding, competition with immobilised ligand | 1 µM | – | remaining binding | 94% |
| C=CC(=O)N1CCc2ccc(-n3c(=O)ccc4cnc5ccc(-c6cnn(C)c6)cc5c43)cc21 | CDK8 | KINOMEscan | 1 µM | relative to: DMSO control | remaining binding | 93% |
| Cc1ccc(-c2c(/C=C(\C#N)C(=O)NC(C)C)n(CCCO)c3ncnc(N)c23)cc1 | CDK8 | cell-free assay, competition with immobilised ligand | 1 µM | – | remaining binding | 80% |
